Results of several laboratories.
Lines come from different studies, so protocols differ. ± marks the error that the study gave.
Method: steady-state kinetics
B1: sucA (Escherichia coli, UniProt P0AFG3); chain MQNSALKAWLDSSYLSGANQSWIEQLYEDFLTDPDSVDANWRSTFQQLPGTGVKPDQFHSQTREYFRRLAKDASRYSSTISDPDTNVKQVKVLQLINAYRFRGHQHANLDPLGLWQQDKVADLDPSFHDLTEADFQETFNVGSFASGKETMKLGELLEALKQTYCGPIGAEYMHITSTEEKRWIQQRIESGRATFNSEEKKRFLSELTAAEGLERYLGAKFPGAKRFSLEGGDALIPMLKEMIRHAGNSGTREVVLGMAHRGRLNVLVNVLGKKPQDLFDEFAGKHKEHLGTGDVKYHMGFSSDFQTDGGLVHLALAFNPSHLEIVSPVVIGSVRARLDRLDEPSSNKVLPITIHGDAAVTGQGVVQETLNMSKARGYEVGGTVRIVINNQVGFTTSNPLDARSTPYCTDIGKMVQAPIFHVNADDPEAVAFVTRLALDFRNTFKRDVFIDLVCYRRHGHNEADEPSATQPLMYQKIKKHPTPRKIYADKLEQEKVATLEDATEMVNLYRDALDAGDCVVAEWRPMNMHSFTWSPYLNHEWDEEYPNKVEMKRLQELAKRISTVPEAVEMQSRVAKIYGDRQAMAAGEKLFDWGGAENLAYATLVDEGIPVRLSGEDSGRGTFFHRHAVIHNQSNGSTYTPLQHIHNGQGAFRVWDSVLSEEAVLAFEYGYATAEPRTLTIWEAQFGDFANGAQVVIDQFISSGEQKWGRMCGLVMLLPHGYEGQGPEHSSARLERYLQLCAEQNMQVCVPSTPAQVYHMLRRQALRGMRRPLVVMSPKSLLRHPLAVSSLEELANGTFLPAIGEIDELDPKGVKRVVMCSGKVYYDLLEQRRKNNQHDVAIVRIEQLYPFPHKAMQEVLQQFAHVKDFVWCQEEPLNQGAWYCSQHHFREVIPFGASLRYAGRPASASPAVGYMSVHQKQQQDLVNDALNVE
B2: enzyme E323G (UniProt H9KVH3); chain ADASQIVSEMGAGWNLGNQLEAAVNGTPNETAWGNPTVTPELIKKVKAAGFKSIRIPVSYLNNIGSAPNYTINAAWLNRIQQVVDYAYNEGLYVIINIHGDGYNSVQGGWLLVNGGNQTAIKEKYKKVWQQIATKFSNYNDRLIFESMNEVFDGNYGNPNSAYYTNLNAYNQIFVDTVRQTGGNNNARWLLVPGWNTNIDYTVGNYGFTLPTDNYRSSAIPSSQKRIMISAHYYSPWDFAGEENGNITQWGATSTNPAKKSTWGQEDYLESQFKSMYDKFVTQGYPVVIGGFGSIDKTSYDSSNNVYRAAYAKAVTAKAKKYKMVPVYWDNGHNGQHGFALFNRSNNTVTQQNIINAIMQGMQ
B3: ycjS (Escherichia coli, UniProt P77503); chain MKSAMTSSPLRVAIIGAGQVADKVHASYYCTRNDLELVAVCDSRLSQAQALAEKYGNASVWDDPQAMLLAVKPDVVSVCSPNRFHYEHTLMALEAGCHVMCEKPPAMTPEQAREMCDTARKLGKVLAYDFHHRFALDTQQLREQVTNGVLGEIYVTTARALRRCGVPGWGVFTNKELQGGGPLIDIGIHMLDAAMYVLGFPAVKSVNAHSFQKIGTQKSCGQFGEWDPATYSVEDSLFGTIEFHNGGILWLETSFALNIREQSIMNVSFCGDKAGATLFPAHIYTDNNGELMTLMQREIADDNRHLRSMEAFINHVQGKPVMIADAEQGYIIQQLVAALYQSAETGTRVEL
B4: CoA persulfide reductase CDR-RHD (Enterococcus faecalis, UniProt A0ACD6TF65); chain MKIVIIGGVAGGMSAATRLRRLMEDAEIVVMEKGPFVSFANCGLPYYVSGEIAEREQLLVQTPEALKARFNLDVRPHHEVVAIDPIEKVITVKHETEILTEHYDKLILSPGAKPFVPPITGLAEAKNVFSLRNVPDLDQIMTALTPETKRAVVIGAGFIGLEMAENLQKRGLEVTLVEKAPHVLPPLDEEMAAFVKAELSKNNVQVITGQSAVAFEEEGQVIRLEDGQTLASDLTILSVGVQPENTLAVEAGVATGLRGGIVVDEHYQTNQPDIYAVGDAIVVKQQITQEDALISLASPANRQGRQVADVIAGLERKNQGSIGTAIVRVFDLTAASTGLSERAAKAAGLTTAVVHISGKDHAGYYPGATDLQLKLVFHPTTGEIYGAQGIGAKGVDKRIDILATAIKGQLTIFDLPELEFTYAPPFGSAKDPVNMLGYAAMNLVEGLSENVQWYELSNELAKGAVLLDVRNPAERANGQFKNAVSIPLNELRERLEELDKSTEYIVSCHSGLRSYIAERMLKQAGISAKNLDGAFALYRMVKPEELENV
B5: enzyme (Acinetobacter baumannii, UniProt D0CBC8); chain MALVLDGRALAKQIEENLLVRVEALKAKTGRTPILATILVGDDGASATYVRMKGNACRRVGMDSLKIELPQETTTEQLLAEIEKLNANPDVHGILLQHPVPAQIDERACFDAISLAKDVDGVTCLGFGRMAMGEAAYGSATPAGIMTILKENNIEIAGKHAVVVGRSAILGKPMAMMLLQANATVTICHSRTQNLPELVKQADIIVGAVGKAELIQKDWIKQGAVVVDAGFHPRDGGGVGDIQLQGIEEIASAYTPVPGGVGPMTITTLIRQTVEAAEKALG
B6: ltaE H83F (Escherichia coli, UniProt P75823); chain MIDLRSDTVTRPSRAMLEAMMAAPVGDDVYGDDPTVNALQDYAAELSGKEAAIFLPTGTQANLVALLSHCERGEEYIVGQAAFNYLFEAGGAAVLGSIQPQPIDAAADGTLPLDKVAMKIKPDDIHFARTKLLSLENTHNGKVLPREYLKEAWEFTRERNLALHVDGARIFNAVVAYGCELKEITQYCDSFTICLSKGLGTPVGSLLVGNRDYIKRAIRWRKMTGGGMRQSGILAAAGIYALKNNVARLQEDHDNAAWMAEQLREAGADVMRQDTNMLFVRVGEENAAALGEYMKARNVLINASPIVRLVTHLDVSREQLAEVAAHWRAFLAR
B7: TcC (Trypanosoma cruzi, UniProt Q4DGA3); chain MPREYEFAEKILFTEEEIRTRIMEVAKRIADDYKGKGLRPYVNPLVLISVLKGSFMFTADLCRALSDFNVPVRMEFICVSSYGEGVTSSGQVRMLLDTRHSIEGHHVLIVEDIVDTALTLNYLYHMYFTRRPASLKTVVLLDKREGRRVPFSADYVVANIPNAFVIGYGLDYDDTYRELRDIVVLRPEVYAEREAARQKKQRAIGSADTDRDAKREFHSKY
B8: GTPBP3 E315A (Homo sapiens, UniProt Q969Y2); chain TRRSSGAPAPGSGATIFALSSGQGRCGIAVIRTSGPASGHALRILTAPRDLPLARHASLRLLSDPRSGEPLDRALVLWFPGPQSFTGEDCVEFHVHGGPAVVSGVLQALGSVPGLRPAEAGEFTRRAFANGKLNLTEVEGLADLIHAETEAQRRQALRQLDGELGHLCRGWAETLTKALAHVEAYIDFGEDDNLEEGVLEQADIEVRALQVALGAHLRDARRGQRLRSGVHVVVTGPPNAGKSSLVNLLSRKPVSIVSPEPGTTRDVLETPVDLAGFPVLLSDTAGLREGVGPVAQEGVRRARERLEQADLILAMLDASDLASPSSCNFLATVVASVGAQSPSDSSQRLLLVLNKSDLLSPEGPGPGPDLPPHLLLSCLTGEGLDGLLEALRKELAAVCGDPSTDPPLLTRARHQHHLQGCLDALGHYKQSKDLALAAEALRVARGHLTRLTGGGGTEEILDIIFQDFCVGK
Chain of UniProt P12081 (whole entry, looked up): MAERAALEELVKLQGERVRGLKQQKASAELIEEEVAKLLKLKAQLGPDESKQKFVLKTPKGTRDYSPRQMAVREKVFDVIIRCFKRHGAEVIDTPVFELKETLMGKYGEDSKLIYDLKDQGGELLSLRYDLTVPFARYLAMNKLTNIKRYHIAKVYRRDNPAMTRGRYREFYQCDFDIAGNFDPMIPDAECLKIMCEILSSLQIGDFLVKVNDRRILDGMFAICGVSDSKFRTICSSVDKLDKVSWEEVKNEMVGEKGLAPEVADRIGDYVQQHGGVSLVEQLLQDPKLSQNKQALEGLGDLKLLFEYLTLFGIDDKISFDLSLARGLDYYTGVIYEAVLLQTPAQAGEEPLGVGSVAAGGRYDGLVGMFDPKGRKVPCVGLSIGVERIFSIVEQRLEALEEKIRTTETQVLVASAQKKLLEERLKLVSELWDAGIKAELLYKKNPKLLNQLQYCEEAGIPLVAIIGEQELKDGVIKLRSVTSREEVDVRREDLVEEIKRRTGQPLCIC
Chain of UniProt P45370 (whole entry, looked up): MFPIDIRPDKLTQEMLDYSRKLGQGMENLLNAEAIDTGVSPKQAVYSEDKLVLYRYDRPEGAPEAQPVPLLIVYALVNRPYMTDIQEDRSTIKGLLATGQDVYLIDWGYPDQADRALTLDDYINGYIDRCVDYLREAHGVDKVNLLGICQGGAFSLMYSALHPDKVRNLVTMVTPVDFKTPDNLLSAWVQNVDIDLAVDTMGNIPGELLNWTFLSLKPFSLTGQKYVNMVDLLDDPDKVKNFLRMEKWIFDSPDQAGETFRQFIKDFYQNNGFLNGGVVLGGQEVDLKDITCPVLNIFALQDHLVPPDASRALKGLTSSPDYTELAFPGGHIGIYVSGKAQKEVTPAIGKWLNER
Chain of UniProt Q6F4M8 (whole entry, looked up): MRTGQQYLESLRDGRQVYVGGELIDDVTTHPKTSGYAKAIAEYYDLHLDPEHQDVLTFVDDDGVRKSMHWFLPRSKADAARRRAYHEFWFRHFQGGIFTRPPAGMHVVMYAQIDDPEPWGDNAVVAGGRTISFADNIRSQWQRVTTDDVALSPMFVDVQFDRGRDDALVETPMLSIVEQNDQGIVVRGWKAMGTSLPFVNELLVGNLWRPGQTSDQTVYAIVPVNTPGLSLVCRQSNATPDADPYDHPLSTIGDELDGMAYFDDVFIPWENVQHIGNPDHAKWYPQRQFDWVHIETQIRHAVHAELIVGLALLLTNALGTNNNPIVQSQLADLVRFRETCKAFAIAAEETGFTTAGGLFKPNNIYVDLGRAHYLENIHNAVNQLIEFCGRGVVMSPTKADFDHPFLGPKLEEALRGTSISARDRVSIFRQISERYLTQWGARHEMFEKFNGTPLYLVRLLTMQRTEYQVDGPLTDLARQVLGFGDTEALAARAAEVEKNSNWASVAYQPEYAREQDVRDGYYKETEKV
Chain of UniProt A1ZAW0 (whole entry, looked up): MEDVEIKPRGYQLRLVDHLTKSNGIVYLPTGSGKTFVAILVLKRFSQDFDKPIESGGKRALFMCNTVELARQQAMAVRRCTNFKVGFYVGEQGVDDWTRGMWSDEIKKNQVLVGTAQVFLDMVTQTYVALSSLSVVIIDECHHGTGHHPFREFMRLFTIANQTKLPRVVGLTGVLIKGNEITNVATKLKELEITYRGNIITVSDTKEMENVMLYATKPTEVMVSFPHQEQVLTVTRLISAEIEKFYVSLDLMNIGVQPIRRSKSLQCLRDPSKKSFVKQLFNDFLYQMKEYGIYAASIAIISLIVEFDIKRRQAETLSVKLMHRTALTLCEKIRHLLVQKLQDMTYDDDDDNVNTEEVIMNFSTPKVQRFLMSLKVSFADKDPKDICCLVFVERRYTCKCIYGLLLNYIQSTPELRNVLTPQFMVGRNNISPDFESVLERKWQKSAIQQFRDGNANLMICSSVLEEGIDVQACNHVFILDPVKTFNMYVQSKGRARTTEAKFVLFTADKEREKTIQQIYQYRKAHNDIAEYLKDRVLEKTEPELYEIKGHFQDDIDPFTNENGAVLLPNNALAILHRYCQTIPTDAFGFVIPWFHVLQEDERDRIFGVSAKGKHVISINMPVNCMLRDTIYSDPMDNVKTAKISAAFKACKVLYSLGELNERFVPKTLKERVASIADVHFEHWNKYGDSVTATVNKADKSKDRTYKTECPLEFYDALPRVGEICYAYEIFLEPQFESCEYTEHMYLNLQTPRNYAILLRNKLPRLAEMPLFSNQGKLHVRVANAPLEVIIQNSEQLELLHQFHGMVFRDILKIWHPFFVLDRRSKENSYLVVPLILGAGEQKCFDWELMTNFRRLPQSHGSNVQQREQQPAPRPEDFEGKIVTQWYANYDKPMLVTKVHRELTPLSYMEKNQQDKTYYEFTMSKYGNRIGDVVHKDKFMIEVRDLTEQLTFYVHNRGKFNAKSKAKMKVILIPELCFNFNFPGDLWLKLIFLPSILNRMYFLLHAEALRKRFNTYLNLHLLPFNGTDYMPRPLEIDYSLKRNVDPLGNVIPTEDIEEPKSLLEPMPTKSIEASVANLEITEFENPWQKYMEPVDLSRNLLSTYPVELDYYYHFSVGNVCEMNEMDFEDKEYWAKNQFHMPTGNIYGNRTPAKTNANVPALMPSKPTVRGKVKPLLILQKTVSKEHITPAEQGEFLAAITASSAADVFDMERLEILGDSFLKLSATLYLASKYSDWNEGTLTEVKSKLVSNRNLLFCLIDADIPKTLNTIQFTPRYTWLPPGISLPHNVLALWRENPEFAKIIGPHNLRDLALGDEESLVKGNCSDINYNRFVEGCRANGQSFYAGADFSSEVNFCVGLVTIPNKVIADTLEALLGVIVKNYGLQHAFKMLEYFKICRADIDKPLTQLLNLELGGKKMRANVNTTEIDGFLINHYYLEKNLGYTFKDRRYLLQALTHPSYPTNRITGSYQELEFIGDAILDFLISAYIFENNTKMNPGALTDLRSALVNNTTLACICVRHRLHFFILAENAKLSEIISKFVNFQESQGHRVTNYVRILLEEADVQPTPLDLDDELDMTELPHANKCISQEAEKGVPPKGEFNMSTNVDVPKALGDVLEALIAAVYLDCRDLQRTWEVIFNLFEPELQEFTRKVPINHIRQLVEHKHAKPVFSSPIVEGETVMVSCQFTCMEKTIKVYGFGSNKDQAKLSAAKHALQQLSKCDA

| Molecule | substrate | pH | temperature | notes | together with | kcat/Km |
| --- | --- | --- | --- | --- | --- | --- |
| B1 (sucA) | O=C(O)C(=O)CO | pH 6.8 | 37 °C | – | – | 19.3 ± 1.9 M⁻¹ s⁻¹ |
| enzyme (Bifidobacterium adolescentis, UniProt A1A3M6) | O=[N+]([O-])c1ccc(O[C@H]2O[C@H](CO)[C@H](O)[C@H](O)[C@H]2O)cc1 | pH 5 | 40 °C | – | – | 408 M⁻¹ s⁻¹ |
| Dcr-2 (Drosophila melanogaster, UniProt A1ZAW0) | Nc1ncnc2c1ncn2[C@@H]1O[C@H](COP(=O)(O)OP(=O)(O)OP(=O)(O)O)[C@@H](O)[C@H]1O | pH 7.4 | 25 °C | – | dsRNA, magnesium acetate 3.3 mM | 117000 ± 33300 M⁻¹ s⁻¹ |
| B2 (enzyme E323G) | OC[C@H]1O[C@H](F)[C@H](O)[C@@H](O)[C@@H]1O[C@@H]1O[C@H](CO[C@H]2OC[C@@H](O)[C@H](O)[C@H]2O)[C@@H](O[C@@H]2O[C@H](CO[C@H]3OC[C@@H](O)[C@H](O)[C@H]3O)[C@@H](O[C@@H]3O[C@H](CO[C@H]4OC[C@@H](O)[C@H](O)[C@H]4O)[C@@H](O)[C@H](O)[C@H]3O)[C@H](O)[C@H]2O)[C@H](O)[C@H]1O | pH 7.5 | 30 °C | apparent | – | 128 M⁻¹ s⁻¹ |
| B3 (ycjS) | CO[C@@H]1O[C@H](CO)[C@@H](O)[C@H](O)[C@H]1O | pH 8 | 30 °C | – | NAD+ 2.0 mM | 191 ± 9 M⁻¹ s⁻¹ |
| enzyme (Mortierella alpina, UniProt U5Y3C6) | CCCCCCCC/C=C\CCCCCCCC(=O)SCCNC(=O)CCNC(=O)[C@H](O)C(C)(C)COP(=O)(O)OP(=O)(O)OC[C@H]1O[C@@H](n2cnc3c(N)ncnc32)[C@H](O)[C@@H]1OP(=O)(O)O | pH 7.5 | 28 °C | – | – | 2670 M⁻¹ s⁻¹ |
| protein (Sinorhizobium meliloti, UniProt Q92WA4) | O=C(O)[C@H]1O[C@H](OP(=O)(O)OP(=O)(O)OC[C@H]2O[C@@H](n3ccc(=O)[nH]c3=O)[C@H](O)[C@@H]2O)[C@H](O)[C@@H](O)[C@@H]1O | pH 7.6 | 37 °C | – | NAD+ 1 mM | 18300 ± 200 M⁻¹ s⁻¹ |
| enzyme (Trypanosoma brucei, UniProt Q8WQX5) | O=c1ccn([C@@H]2O[C@H](COP(=O)(O)OP(=O)(O)OP(=O)(O)O)[C@@H](O)[C@H]2O)c(=O)[nH]1 | pH 8 | 27 °C | apparent | – | 60000 M⁻¹ s⁻¹ |
| B4 | CC(C)(COP(=O)(O)OP(=O)(O)OC[C@H]1O[C@@H](n2cnc3c(N)ncnc32)[C@H](O)[C@@H]1OP(=O)(O)O)[C@@H](O)C(=O)NCCC(=O)NCCSS | pH 8 | 25 °C | NaCl 200 mM | FAD 100 nM, NADH 100 µM | 44000 ± 10000 M⁻¹ s⁻¹ |
| B5 (enzyme) | Nc1nc2c(c(=O)[nH]1)N1CN(c3ccc(C(=O)N[C@@H](CCC(=O)O)C(=O)O)cc3)C[C@H]1CN2 | pH 7.3 | 27 °C | – | – | 3.2e+06 M⁻¹ s⁻¹ |
| HARS1 (Homo sapiens, UniProt P12081) | Nc1ncnc2c1ncn2[C@@H]1O[C@H](COP(=O)(O)OP(=O)(O)OP(=O)(O)O)[C@@H](O)[C@H]1O | pH 7.5 | – | – | histidine, tRNAHis 5 µM, MgCl2 10 mM, KCl 150 mM | 130000 M⁻¹ s⁻¹ |
| B6 (ltaE H83F) | C[C@H](O)[C@H](N)C(=O)O | pH 7 | 30 °C | potassium phosphate 20 mM, retro-aldol cleavage | PLP 500 µM | 8.83 M⁻¹ s⁻¹ |
| B7 (TcC) | O=P(O)(O)OC[C@H]1O[C@H](OP(=O)(O)OP(=O)(O)O)[C@H](O)[C@@H]1O | pH 8.3 | 37 °C | GMP biosynthesis, apparent | Gua 100 µM | 930000 ± 90000 M⁻¹ s⁻¹ |
| B8 (GTPBP3 E315A) | Nc1nc2c(ncn2[C@@H]2O[C@H](COP(=O)(O)OP(=O)(O)OP(=O)(O)O)[C@@H](O)[C@H]2O)c(=O)[nH]1 | pH 8 | 37 °C | KCl 300 mM | – | 93 M⁻¹ s⁻¹ |
| enzyme (UniProt A0A7J5BGR1) | Oc1ccc2c(c1)CCC2 | pH 8 | 25 °C | – | – | 5400 M⁻¹ s⁻¹ |
| enzyme (Rhodococcus opacus, UniProt Q6F4M8) | O=[N+]([O-])c1ccc(O)cc1 | pH 7.5 | 25 °C | – | – | 1420 ± 56.1 M⁻¹ s⁻¹ |
| enzyme (Triticum aestivum, UniProt A0A6J4BJH4) | O=C1[C@@H](O[C@@H]2O[C@H](CO)[C@@H](O)[C@H](O)[C@H]2O)Oc2ccccc2N1O | pH 7.2 | 30 °C | – | – | 1860 M⁻¹ s⁻¹ |
| protein (Allochromatium vinosum, UniProt P45370) | C[C@@H](O)CC(=O)SCCNC(=O)CCNC(=O)[C@H](O)C(C)(C)COP(=O)(O)OP(=O)(O)OC[C@H]1O[C@@H](n2cnc3c(N)ncnc32)[C@H](O)[C@@H]1OP(=O)(O)O | pH 7.8 | 30 °C | – | – | 4.62e+06 M⁻¹ s⁻¹ |

Repeated from above:
| Molecule | substrate | pH | temperature | notes | together with | kcat/Km |
| --- | --- | --- | --- | --- | --- | --- |
| B7 (TcC) | O=P(O)(O)OC[C@H]1O[C@H](OP(=O)(O)OP(=O)(O)O)[C@H](O)[C@@H]1O | pH 8.3 | 37 °C | GMP biosynthesis, apparent | Gua 100 µM | 930000 ± 90000 M⁻¹ s⁻¹ |
